{"data": "Results gathered from unrelated publications", "note": "A part holds a random share of what one study measured."}
{"data": "Study 1", "target": "Ras GTPase-activating protein-binding protein 1, RRM domain (G3BP1, Homo sapiens, UniProt Q13283)", "technique": "RNA Bind-n-Seq", "form": "RNA", "matrix": "in vitro", "tested at": "1 µM", "setting": "whole 134-nt RNA, ends assumed", "together with": "150 mM KCl", "baseline": "input library", "direction": "higher = stronger binding", "sequence of UniProt Q13283 (whole entry, looked up)": "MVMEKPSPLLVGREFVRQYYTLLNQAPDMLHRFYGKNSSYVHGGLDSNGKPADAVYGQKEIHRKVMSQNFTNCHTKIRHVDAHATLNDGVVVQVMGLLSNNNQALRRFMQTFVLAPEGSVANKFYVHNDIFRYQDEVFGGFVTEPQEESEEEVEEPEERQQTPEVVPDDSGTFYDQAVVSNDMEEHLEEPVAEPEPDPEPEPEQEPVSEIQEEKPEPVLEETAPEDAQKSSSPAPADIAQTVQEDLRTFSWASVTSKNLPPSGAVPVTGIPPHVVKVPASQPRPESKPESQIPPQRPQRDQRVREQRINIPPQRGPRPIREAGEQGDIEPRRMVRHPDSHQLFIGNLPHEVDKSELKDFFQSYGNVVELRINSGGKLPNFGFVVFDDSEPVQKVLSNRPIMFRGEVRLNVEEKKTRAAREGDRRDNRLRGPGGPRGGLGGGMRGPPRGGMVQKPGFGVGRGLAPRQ"}
{"Strand": "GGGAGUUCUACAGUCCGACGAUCCAAGUCCUGUGCUACACAUCGUAUGUACCGAAUCGGCCCCGGCCCCGGCCCCGGGGAAAGUAUUAUGUUACGCCGUUCGGAUCUGCACUUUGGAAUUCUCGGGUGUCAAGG", "log2 enrichment": -1.42}
{"Strand": "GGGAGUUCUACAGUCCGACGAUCGUCCUGUGCUACACAUCGUAUGUACCGAAUCGGGAAAAAGGAAAAAGGGGAAAAAGGGAAAGUAUUAUGUUACGCCGUUCGGAUCUGCACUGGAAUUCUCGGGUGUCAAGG", "log2 enrichment": 0.0985}
{"Strand": "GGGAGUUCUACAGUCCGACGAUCACCAUGCAGGUGGGCAUCUUUGAGAAGUGGGGCAAGGGGGGGAUAGGGAGGGGGGUAACACUUUGGGAACAGGUGGUCCCAGGUCGUUUCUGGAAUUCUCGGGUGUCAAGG", "log2 enrichment": -0.608}
{"Strand": "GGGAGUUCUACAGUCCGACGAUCGUGCUACACAUCGUAUGUACCGAAUCGGGGUUUUUUUGGGGUUUUUUUGGGGAAAAAAAGGGGAAAGUAUUAUGUUACGCCGUUCGGAUCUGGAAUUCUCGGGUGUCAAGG", "log2 enrichment": 0.889}
{"Strand": "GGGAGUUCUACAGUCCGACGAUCUAACUUUAGAGGAGGAUCUGAUGGAUAUGGCAGUGGACGUGGAUUUGGAGAUGGCUAUAAUGGGUAUGGAGGAGGACCUGGAGGUGGCAAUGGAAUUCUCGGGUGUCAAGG", "log2 enrichment": -0.685}
{"Strand": "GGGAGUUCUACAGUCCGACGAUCGUCCUGUGCUACACAUCGUAUGUACCGAAUCGGGAAAAAAAGGGAAAGGGUUUUUGGGAAAGUAUUAUGUUACGCCGUUCGGAUCUGCACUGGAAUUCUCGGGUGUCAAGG", "log2 enrichment": 0.235}
{"Strand": "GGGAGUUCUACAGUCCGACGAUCUCAAGUCCUGUGCUACACAUCGUAUGUACCGAAUCGGAAAAAAAGGAGGAAAGGAAAGUAUUAUGUUACGCCGUUCGGAUCUGCACUUCCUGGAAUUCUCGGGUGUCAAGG", "log2 enrichment": -0.00948}
{"Strand": "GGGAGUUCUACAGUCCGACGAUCUAACUUUAGAGGAGGAUCUGAUGGAUAUGGCAGUGGACGUGGAUUUGGGGAUGGCUAAAAUGGGUAUGGAGGAGGACCUGGAGGUGGCAAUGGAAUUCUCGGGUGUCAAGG", "log2 enrichment": -0.248}
{"Strand": "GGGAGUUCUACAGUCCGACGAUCGUCCUGUGCUACACAUCGUAUGUACCGAAUCGGGGCCCCCGGCCCCCGGGCCCCCGGGAAAGUAUUAUGUUACGCCGUUCGGAUCUGCACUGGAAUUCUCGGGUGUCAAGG", "log2 enrichment": -0.568}
{"Strand": "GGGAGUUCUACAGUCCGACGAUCCUGUGCUACACAUCGUAUGUACCGAAUCAAACCCCCCCAAACCCCCCCAAACCCCCCCAAAAAAGUAUUAUGUUACGCCGUUCGGAUCUGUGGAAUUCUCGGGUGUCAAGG", "log2 enrichment": -0.309}
{"data": "Study 2", "target": "RING finger protein unkempt homolog, zinc fingers 1-6, GST-SBP tag (UNK, Homo sapiens, UniProt Q9C0B0, residues 30-357)", "technique": "RNA Bind-n-Seq", "form": "RNA", "matrix": "in vitro", "tested at": "not given", "setting": "RNA with constant flanks, human-mouse chimeric sites, ends assumed", "baseline": "input RNA pool", "direction": "higher = stronger binding", "Residues (chain)": "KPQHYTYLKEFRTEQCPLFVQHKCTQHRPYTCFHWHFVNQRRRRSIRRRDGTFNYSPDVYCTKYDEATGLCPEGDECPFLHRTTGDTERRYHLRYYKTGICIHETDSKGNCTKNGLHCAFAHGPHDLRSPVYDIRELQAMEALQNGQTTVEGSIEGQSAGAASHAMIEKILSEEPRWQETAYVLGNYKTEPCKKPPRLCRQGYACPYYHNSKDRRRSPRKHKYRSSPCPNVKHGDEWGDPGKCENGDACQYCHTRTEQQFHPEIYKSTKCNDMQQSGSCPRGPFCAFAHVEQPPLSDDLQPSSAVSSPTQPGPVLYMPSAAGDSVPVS"}
{"Strand": "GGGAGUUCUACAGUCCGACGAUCUUCAAAGAAAAGGGCAGCUGUGUCAUUUCAUAAGUAACUCUGGGGGAGGGAAAUUCUGUUCUUUUGUUUAAUUUUCCCCCAGAUAAAGCCAAAGUGUGUGUUGAAGAAGGAAGAAUGAAUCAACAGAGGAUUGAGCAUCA", "bound/input enrichment [ratio]": 0.178}
{"Strand": "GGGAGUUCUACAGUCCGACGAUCGCUCCUCCCCGCUCUGCAGCCUGGGGACACUGGGCUGGGACCAGAAUCCAGCUUUCUUUUAAAACUCUCAGUGUAACUGUAUCCCGUUUUUUUCUUUUUUUUUUAAAAGAAAAAAACUUUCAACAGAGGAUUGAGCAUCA", "bound/input enrichment [ratio]": 0.419}
{"Strand": "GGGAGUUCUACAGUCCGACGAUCGUAUACGGUUAUCGAGGAAAGGACUGUAGAGCUAAUGUUUACCUUCUUCCCACAGGGGAGAUAGUUUAUUUUAUCGCCUCAGUGGUAGUCCUGUUUAAUUAUGAGGAGAGGACUCAGCGACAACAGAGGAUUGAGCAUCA", "bound/input enrichment [ratio]": 0.257}
{"Strand": "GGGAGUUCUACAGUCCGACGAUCGACAGUGAAGGCCCACUGUGUGAAUUGCUUUUUUUCUUCCUGACUGCAAUCUUCCAGGCGAUGGCUGAAGAAGAAGAGGAAGUAGCCAAAGAGCAACUAACUGAUGCUGACACCAAAGAUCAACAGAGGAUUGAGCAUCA", "bound/input enrichment [ratio]": 0.0627}
{"Strand": "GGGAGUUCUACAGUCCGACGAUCAGGAGGAGGUUAAAGGGUGAGAGUGGGGUGGAAGACUGUGUCAUGGCUCUGGAGACACUGUUCAGUGUCCUGCUUUCUCUUUGCAGACUGAUGGCCCCUUACACGCCUUUUCUCACUGAGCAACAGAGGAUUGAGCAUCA", "bound/input enrichment [ratio]": 0.0692}
{"Strand": "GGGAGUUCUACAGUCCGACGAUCGUAGCUGGGACUACAGAAGAAUGCUGAAUUUCAGUCACUUGCUGAUGACUUCUGAUGUCCCAGCAAAUGUUGGCAUUGUUGACUGCUCUGUGAAGACUUCUGAGGACCCACGUCUAAGGUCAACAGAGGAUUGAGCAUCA", "bound/input enrichment [ratio]": 0.0789}
{"Strand": "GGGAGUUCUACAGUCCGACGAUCACAGUUAUAUUGUUGAGUUUCAUUUUCAUAUAUUCUUAUGGUGUCUGCUUGCCUGUGACUUCUGGUAAAAUAAAAUAAGCCUUUGAAAAUAUUUUAGCAUGGUAUUUAACAUUUUCUAAACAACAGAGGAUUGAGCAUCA", "bound/input enrichment [ratio]": 1.25}
{"Strand": "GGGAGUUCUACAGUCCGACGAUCCAGACUGUGUCAUACUUUUUAGACAUUGCCAUAGGUAUUACAGAGCACCUGGCCACAUUCUAGGUUUGUGUUAUUUCUCAGCUAUGGAUAUGAUCAAAUGAGAACACUGCUUAACUAAUGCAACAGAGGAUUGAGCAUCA", "bound/input enrichment [ratio]": 1.62}
{"data": "Study 3", "target": "RNA binding protein fox-1 homolog 2, RRM domain, GST-SBP tag (RBFOX2, Homo sapiens, UniProt O43251-10, residues 100-194)", "technique": "RNA Bind-n-Seq", "form": "RNA", "matrix": "in vitro", "tested at": "365 nM", "setting": "natural RNA segment, single round, ends assumed", "baseline": "no-protein control", "direction": "higher = stronger binding", "Construct (chain)": "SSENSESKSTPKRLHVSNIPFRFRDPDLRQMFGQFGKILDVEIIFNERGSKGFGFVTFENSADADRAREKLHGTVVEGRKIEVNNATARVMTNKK"}
{"Strand": "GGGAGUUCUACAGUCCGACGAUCGACCCUUUGUGUUUUAGUGACUCAGAAAAGUCAAGCCAUUUGCAAAAGUUAGCAGUUUGUUUUGUCAACUUGUAACUGGGUCAUAGCCUUGCUGAGUGAAACCAACUCAUUGGAAUUCUCGGGUGCCAA", "RBNS enrichment (R)": 0.423}
{"Strand": "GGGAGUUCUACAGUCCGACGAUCCUUUAAUUCCCCCACAAAGAUUAUUAAUCACAUAUAUAGGGCCUUUUUGGUGUUGAAGGGAAUCAAACUACAUUUGCUGCUUGUGUGCGUGUGCAUUUGUGAACACGUACUGGAAUUCUCGGGUGCCAA", "RBNS enrichment (R)": 0.785}
{"Strand": "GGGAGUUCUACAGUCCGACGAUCUUUUUUGUUAGCUGAGACAUUGACAUGUUUGUAUUUAAUUCUCUUGAUAAAUUAGCUACUACAACCCCAUGGAACCAAGUCUUUUCAAAUUUCAACAAAUUGUCUUUGAGUGGAAUUCUCGGGUGCCAA", "RBNS enrichment (R)": 0.336}
{"Strand": "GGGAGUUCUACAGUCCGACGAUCUGGAUAUUCUUGAUUCUUAGUUCAAAAAAGUUAUUUUGUCAAUAAAACAUGCUUAAAGGAGUAACUAGGAGGGUAAAGCAGUUACAGCUUAGUGAUACAAAUACAUUUCUUGGAAUUCUCGGGUGCCAA", "RBNS enrichment (R)": 0.634}
{"Strand": "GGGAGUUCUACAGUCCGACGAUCUCCACCCACCUUGGCCUCCCAAAGUGCUAGUAUUAUGGGCGUGAACCACCAUGCCCAGCCGAAAAGCUUUUGAGGGGCUGACUUCAAUCCAUGUAGGAAAGUAAAAUGGAUGGAAUUCUCGGGUGCCAA", "RBNS enrichment (R)": 0.372}
{"Strand": "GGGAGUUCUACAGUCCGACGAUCAGGUGGUGCUCCAGUGGUUCACAGAAAACAGCAAAUAGUCCCCAGCCCUUGAAGUCACCCGGCCCCCAUGCAAGGUGCCCACAUGUGUCCAUCCCAGCGGCUGGUGCAGGUGGAAUUCUCGGGUGCCAA", "RBNS enrichment (R)": 0.554}
{"Strand": "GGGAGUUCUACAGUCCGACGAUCCACCGCCCCCACCCCACCCUCAGGCUGGAGCUCUGGGUGUGGGCAGGGACUGUGGCCCUGGAUUGCCCUCACUUGGGCCUCUGUCACACCGGGUUCCCCUCUGGAGCCACUGGAAUUCUCGGGUGCCAA", "RBNS enrichment (R)": 0.204}
{"Strand": "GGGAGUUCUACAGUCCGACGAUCCCCCACCUUCCCUGUCCUGAUGCCGACAGCUUAGGGAAGGGCAGUGAACUUGCAUAUGGGGCUUAGCCUUCUAGUCACAGCCUCUAUAUUUGAUGCUAGAAAACACAUAUUGGAAUUCUCGGGUGCCAA", "RBNS enrichment (R)": 0.498}
{"Strand": "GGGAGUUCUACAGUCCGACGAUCAUAAAAAGGAUACAGAAUUGUAUAUACAUACUUACUGUAACACAUCUAAAAAAAUGUAUAUGGGUAAGGACCUGAAAGAUCCAUGGAAAAGUUAACCCAGUUGAGAUUUUUGGAAUUCUCGGGUGCCAA", "RBNS enrichment (R)": 0.379}
{"data": "Study 4", "target": "Histone acetyltransferase KAT6A, winged helix 1, GST fusion (KAT6A, Homo sapiens, UniProt Q92794, residues 1-85)", "technique": "protein binding microarray", "form": "double-stranded DNA, one strand shown", "matrix": "in vitro", "tested at": "not given", "setting": "8-mer, flanks averaged, mean of 2 arrays, mostly near background", "baseline": "not given", "direction": "higher = stronger binding", "Construct (chain)": "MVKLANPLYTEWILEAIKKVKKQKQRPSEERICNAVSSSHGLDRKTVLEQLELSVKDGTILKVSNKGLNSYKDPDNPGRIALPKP"}
{"Strand": "ATCGGGAC", "E-score": 0.0624}
{"Strand": "GCTTTACA", "E-score": 0.0624}
{"Strand": "GTTCTAGA", "E-score": -0.134}
{"Strand": "AACCACTC", "E-score": -0.121}
{"Strand": "GTACTGCA", "E-score": -0.0533}
{"Strand": "ACCAGCGC", "E-score": 0.196}
{"Strand": "CCATGTCG", "E-score": -0.0896}
{"Strand": "AGGAGCTC", "E-score": -0.164}
{"Strand": "CATGTTGA", "E-score": -0.0324}
{"Strand": "AACGGAAC", "E-score": 0.156}
{"Strand": "ACATCTAT", "E-score": -0.0176}
{"Strand": "GAAAAGTC", "E-score": -0.136}
{"Strand": "ACGGGCTG", "E-score": 0.208}
{"Strand": "CCGTGACA", "E-score": 0.279}
{"Strand": "GATGTCGA", "E-score": -0.0741}
{"Strand": "AGGAGCTA", "E-score": -0.0332}
{"Strand": "AGCACGCC", "E-score": 0.207}
{"Strand": "CTGCTTGA", "E-score": -0.192}
{"Strand": "AAAAACTT", "E-score": -0.251}
{"Strand": "CGTGTCAA", "E-score": 0.088}
{"Strand": "ACGCTCCC", "E-score": 0.15}
{"Strand": "ATAATTGG", "E-score": -0.205}
{"Strand": "AAGTGGCG", "E-score": 0.027}
{"Strand": "AACCTTAA", "E-score": -0.2}
{"Strand": "CGCTCACC", "E-score": 0.203}
{"note": "Some of these lines once more (study 4):"}
{"Strand": "ACCAGCGC", "E-score": 0.196}
{"Strand": "AACCTTAA", "E-score": -0.2}
{"Strand": "GTTCTAGA", "E-score": -0.134}
{"Strand": "AACGGAAC", "E-score": 0.156}
{"Strand": "GTACTGCA", "E-score": -0.0533}
{"Strand": "CGCTCACC", "E-score": 0.203}
